# Assay results gathered from unrelated publications.
# Every numbered part comes from another study and shows a few of its results, in no order. Values joined by “and” are separate records of one study, mostly repeats; a detail may differ.
# UniProt Q9H3N8, sequence (whole entry, looked up): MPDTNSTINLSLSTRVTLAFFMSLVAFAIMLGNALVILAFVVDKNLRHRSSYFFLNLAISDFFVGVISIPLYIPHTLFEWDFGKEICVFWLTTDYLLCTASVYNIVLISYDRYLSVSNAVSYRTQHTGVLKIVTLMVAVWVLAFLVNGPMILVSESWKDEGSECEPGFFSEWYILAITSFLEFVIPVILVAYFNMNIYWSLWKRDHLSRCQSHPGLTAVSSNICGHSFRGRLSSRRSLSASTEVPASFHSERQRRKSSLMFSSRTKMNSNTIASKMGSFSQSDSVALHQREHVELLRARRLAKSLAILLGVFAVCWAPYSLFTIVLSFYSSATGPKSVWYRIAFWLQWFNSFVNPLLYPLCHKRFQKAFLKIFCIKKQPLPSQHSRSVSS

# Block 1
# Organism: Sarcocystis neurona
# Effect on: parasite growth
# Concentration: 10 µM
Structure (SMILES),inhibition [%]
c1ccc2c(c1)Nc1ccccc1S2,-39.8
O=C(O)CCCc1ccc(N(CCCl)CCCl)cc1,6.3
O=c1c2ccccc2[se]n1-c1ccccc1,-23.3

# Mixed results
SMILES,target or system,assay,system,setting,endpoint,value
CC(N)Cc1ccccc1[S+]([O-])c1ccccc1 (centres unmarked),,,"human, microsomes or S9","2 µM, 0.5 h",remaining compound,79.3%
CCOc1ccc(Nc2c3c(nc4ccccc24)CCC3)cc1,Leishmania donovani,parasite growth,,"4 µM, intracellular, amastigote",inhibition,42%
Cc1c(N2CCNCC2)nc2ccc(Br)cc2c1C(=O)NC[C@H](CCC(=O)O)c1ccccc1Cl,"HRH4 (Homo sapiens, UniProt Q9H3N8)",ligand displacement,,10 µM,inhibition,-15.1%
CCCCCCCCCCCCCCCCOP(=O)([O-])OCC[N+](C)(C)C,Leishmania donovani,,"THP-1 intracellular amastigotes, DD8 resistant line","10 µM, resistance confirmation",inhibition,41% and 43%
Cc1c(C(=O)NC(C(=O)O)C(C)C)c2cc(F)ccc2n1CC(C)(C)O (centres unmarked),,,"human, microsomes or S9","2 µM, 0.5 h",remaining compound,> 99%

# For quick reference, copied from above (mixed results):
SMILES,target or system,assay,system,setting,endpoint,value
CCCCCCCCCCCCCCCCOP(=O)([O-])OCC[N+](C)(C)C,Leishmania donovani,,"THP-1 intracellular amastigotes, DD8 resistant line","10 µM, resistance confirmation",inhibition,41% and 43%
